Published values from different studies.
Each numbered part is a random draw from the data of one study; scales do not carry over between parts. Changes are numbered by the printed parent chain.

Series 1
Target: CCND2, cyclin fold, Cln2 fusion (human)
Technique: yeast growth competition, sequencing
Matrix: yeast
Notes: weak parent motif
Reference: not given
Direction: higher = stronger binding
Starting sequence: E2F1 docking peptide (human); PPVKRRLDLETDH
Change	normalised enrichment score
PPVKRRLDLETRH [D12R]	0.0658
PPTKRRLDLETDH [V3T]	0.285
PPVKRCLDLETDH [R6C]	0.0728
PPVKNRLDLETDH [R5N]	0.266
PPVKRRLDLETDY [H13Y]	0.42
PPVKRRLILETDH [D8I]	0.324
PPVKRRKDLETDH [L7K]	0.381
PPVKRRLGLETDH [D8G]	0.642

Series 2
Target: RNA binding protein fox-1 homolog 2, RRM domain, GST-SBP tag (RBFOX2, Homo sapiens, UniProt O43251-10, residues 100-194)
Technique: RNA Bind-n-Seq
Molecule type: RNA
Matrix: in vitro
Concentration: 365 nM
Notes: natural RNA segment, single round, ends assumed
Reference: no-protein control
Direction: higher = stronger binding
All sequences stand within: GGGAGUUCUACAGUCCGACGAUC … UGGAAUUCUCGGGUGCCAA
Target sequence (chain): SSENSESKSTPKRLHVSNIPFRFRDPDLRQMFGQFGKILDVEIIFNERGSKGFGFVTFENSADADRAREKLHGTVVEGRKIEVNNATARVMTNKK
Sequence	RBNS enrichment (R)
UGAAUGCCUCCUGUGCUGUCUAGUGGGACUACAGAAUGCUGUUUGAUACUGUGUGCGACGUGGAGAGAUUUAAUUAUUUGUAAUAAAGGAUUUGCUAUGGUCUAUUAAUU	2.39
CCCUGGUGCUUUCAGCUUCCCCCAGCUAGGCCUGACCCUGGCUCUUGCUGUAGGCCACAUGCUGAAGGCAAGCCAACCCGAGGACGAGGACAGUCCCUGGAUCCUACACA	0.245
AUUCAAGCAUGCUGUUAGGAAUGUAAUUUCAAUGGGAAGUAAACCACUAUUAGGUUUUUUUUCUUUUCCUCUGUGGGGCUAAGACACUUGAUUAAACAGUUUUUCUUGUU	16.4
CUCGUGUACAUGGUACUUCUUUCUGCUACAGCCGCCAAGUCUAGAGUGUUUACACUGGUUGAUGCUUACACAGCCUGAACUCAGUGCCUCAAACUCCUCUGUGACCAGUU	0.22
UAUUUACCUAAAAAAAGAAAAUGCUUCAGUCAAUUGCUUUUUUAUUUAAAAAAAAAAAGAAAAAAAGCUGUAACCUUAUCAUUUCUGAGUAGACCAUUGAGCGAUGAAUG	0.39
UGCCUCAGGGAUUGUCUCUGUUCCUUCGCUGAGGCCCUCUACUUAGGGCUGAACAUAGGAUUUAUGGCUAGCAGAAUUCCAGCUCCCUUGGGUAAGGAACCAAAGCUCUC	0.382
UAGCUGCCGCUCCAUCAGGGUUCCAGUGAUCUGUAUUGAUGAGAAGAAGCAGAGGUCUCAGCGUCAUCCAGCUCUGACCAAUCCCUGGACCUGUCUACCUGAGGAGCUCC	0.272
UUGCACAGGAGUGGGGCUCUGGUGACCGAAGGUUGUCCAGGACUCUUGCAGGAGAAGCAAUGGAGUCAGUGUGGUGUGGGGAGACCUACUUUUUAACCUGGGCUUAGCCA	0.538
CUUAUCUCACAGAAUUUUGAGUGUUGUAUUUGGCAAGUUCUGAGAUUUGCCUUCUGUCUUAUGCCAAACACCCCUUUCUAAGAGCUGUCCCCGCUUAGUUUUAGAAGUAC	0.728
UUUCAUUUUGUGCUGAGCCCUCAAAAUUAUGUCUGUUUCGUGGUGGGAAAUAUCCUAUGUUUUCUUGCUCAAACACCUUUCUCUCUGAAAGCAGAAAAAGGCACUGAUAU	0.492
GGCAACGGAAGUCUUUUAGUGAUGGCUAAUGGGUCUGGGCAGCAUCCCUUCAUGAAUUUUUUUUUAAUCCAAUAUCCGUUGAUUUGAUUGUGAUUAGAGAACCUUGGACA	1.08
UAAUGGAAGAAUUGAGACAAAAAUCCAGUGUAGCUGGCCACUUAUCCAGGGCUUUUUCUACUUCAUCACAAGGAAUGUUUUGAAAGUGUCUGCUUUUUUUAUCCUUAAAA	0.527

Series 3
Target: Ras GTPase-activating protein-binding protein 1, full length (G3BP1, Homo sapiens, UniProt Q13283)
UniProt Q13283, sequence (whole entry, looked up): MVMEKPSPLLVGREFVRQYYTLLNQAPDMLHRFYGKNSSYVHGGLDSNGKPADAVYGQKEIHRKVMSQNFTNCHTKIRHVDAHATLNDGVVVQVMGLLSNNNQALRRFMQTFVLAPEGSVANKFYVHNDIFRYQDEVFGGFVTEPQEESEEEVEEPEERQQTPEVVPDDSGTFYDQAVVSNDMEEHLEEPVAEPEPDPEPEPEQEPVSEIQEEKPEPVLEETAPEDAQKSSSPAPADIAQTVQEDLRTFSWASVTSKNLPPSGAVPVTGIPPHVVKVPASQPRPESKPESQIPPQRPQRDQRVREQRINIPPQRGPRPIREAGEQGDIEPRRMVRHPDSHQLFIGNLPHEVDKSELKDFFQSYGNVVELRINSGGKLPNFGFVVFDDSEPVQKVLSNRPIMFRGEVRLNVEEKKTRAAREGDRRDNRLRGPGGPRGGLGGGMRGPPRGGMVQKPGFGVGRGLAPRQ
Technique: RNA Bind-n-Seq
Molecule type: RNA
Matrix: in vitro
Concentration: 200 nM
Notes: whole 134-nt RNA, ends assumed
With: 150 mM LiCl
Reference: input library
Direction: higher = stronger binding
Library: 7-deaza-guanosine replaces G
All sequences stand within: GGGAGUUCUACAGUCCGACGAUC … UGGAAUUCUCGGGUGUCAAGG
Sequence	log2 enrichment
AGUCCUGUGCUACACAUCGUAUGUACCGAAUCGGGAAAAAAAGGGUUUGGGAAAGGGAAAGUAUUAUGUUACGCCGUUCGGAUCUGCACU	-1.66
UCCUCAAGUCCUGUGCUACACAUCGUAUGUACCGAAUCGGGUGGGUGGGUGGAAAGUAUUAUGUUACGCCGUUCGGAUCUGCACUUCCAG	0.645
AAGUCCUGUGCUACACAUCGUAUGUACCGAAUCGGUUUGGUUUUUUUGGUUUUUGGAAAGUAUUAUGUUACGCCGUUCGGAUCUGCACUU	-0.861
ACCAUGCAAAAGGGCAUCUUUGGGAAGUGGGGCAAGGGGGGGAUAGGGAGGGGGGUAACACUUUGGGAACAGGUGGUCCCAGGUCGUUUC	0.284
AGUCCUGUGCUACACAUCGUAUGUACCGAAUCGGGAAAAAGGGAAAAAGGGAAAGGGAAAGUAUUAUGUUACGCCGUUCGGAUCUGCACU	-0.765
UUACUUUAGAGGAGGAUCUGAUGGAUAUGGCAGUGGACGUGGAUUUGGGGAUGGCUAUAAUGGGUAUGGAGGAGGACCUGGAGGUGGCAA	0.0986
UAACUUUAGAGGAGGAUCUGAUGGAUAUGGCAGUGGACGUGGAUUUGGGGAUGGCUAUAAUGGGUAGGGAGGAGGACCUGGAGGUGGCAA	-0.379
AAGUCCUGUGCUACACAUCGUAUGUACCGAAUCGGGUUUUUUUGGGAAAGGGAGGGAAAGUAUUAUGUUACGCCGUUCGGAUCUGCACUU	-0.14
AAGUCCUGUGCUACACAUCGUAUGUACCGAAUCGGGAAAAAGGGUUUUUGGGUGGGAAAGUAUUAUGUUACGCCGUUCGGAUCUGCACUU	-0.746
AAGUCCUGUGCUACACAUCGUAUGUACCGAAUCGGGAGGGAAAAAGGGAAAAAGGGAAAGUAUUAUGUUACGCCGUUCGGAUCUGCACUU	0.229
UGGGAGGUGGAUUUUGUUUAUUUUUUUAGCUCAUUUCCAGGGGUGGGAAUUUUUAUUUAAUAUGUGUCAUGAAUAAAGUUGUUUUUGAAA	-0.363

Other studies, line by line
Substance	target	assay	test system	setting	how to read	measurement	result
PhoQ, residues 284 288 289 292 302 303 TLASMF	PhoP, residues 12 14 15 18 19 AQCLL (Escherichia coli, UniProt P23836)	Sort-seq, refers to: YFP reporter	E. coli	PhoQ-PhoP variant library, with: 10 µM Mg2+	reference: high Mg2+ state, higher = stronger signaling	fold induction	4.71

Repeated from above (series 3):
Sequence	log2 enrichment
UGGGAGGUGGAUUUUGUUUAUUUUUUUAGCUCAUUUCCAGGGGUGGGAAUUUUUAUUUAAUAUGUGUCAUGAAUAAAGUUGUUUUUGAAA	-0.363
AAGUCCUGUGCUACACAUCGUAUGUACCGAAUCGGUUUGGUUUUUUUGGUUUUUGGAAAGUAUUAUGUUACGCCGUUCGGAUCUGCACUU	-0.861
UAACUUUAGAGGAGGAUCUGAUGGAUAUGGCAGUGGACGUGGAUUUGGGGAUGGCUAUAAUGGGUAGGGAGGAGGACCUGGAGGUGGCAA	-0.379
AAGUCCUGUGCUACACAUCGUAUGUACCGAAUCGGGUUUUUUUGGGAAAGGGAGGGAAAGUAUUAUGUUACGCCGUUCGGAUCUGCACUU	-0.14
